Published values collected from several papers.
Each line is one published result; not all experiments were run side by side. ± marks the error that the study gave. In brackets after ≈: the same amount, converted by molar mass.

CC(C)=CCC[C@](C)(O[C@@H]1O[C@H](CO)[C@@H](O)[C@H](O)[C@H]1O)[C@H]1CC[C@]2(C)[C@@H]1[C@H](O)C[C@@H]1[C@@]3(C)CC[C@H](O)C(C)(C)[C@@H]3[C@@H](O[C@@H]3O[C@H](CO)[C@@H](O)[C@H](O)[C@H]3O)C[C@]12C  post-preparative stability accuracy (rat, extracted plasma QC samples; 1.0 µg/mL, 24 h, 15 °C, autosampler): 105 ± 6.2%
CCCSc1nc(N[C@@H]2C[C@H]2c2ccc(F)c(F)c2)c2nnn([C@@H]3C[C@H](OCCO)[C@@H](O)[C@H]3O)c2n1  AUC (Wistar Han rat, female, plasma; oral, 60 mg/kg/day, day 1, carcinogenicity study): 191 µM·h
COc1cc2c(cc1OC)CN(CCc1ccc(NC(=O)c3cccc4c(=O)c5cccc(OC)c5[nH]c34)cc1)CC2  solubility (Solutol microemulsion; 24 h, 37 °C): 840 ± 30 µg/mL (≈ 1490 µM)
CCCC[C@H](NC(C)=O)C(=O)N[C@H]1CCC(=O)NC[C@@H](C(=O)N[C@@H](Cc2c[nH]c3ccccc23)C(N)=O)NC(=O)[C@H](CCCNC(=N)N)NC(=O)[C@@H](Cc2ccccc2)NC(=O)[C@H](Cc2c[nH]cn2)NC1=O  AUC(0-t) (Sprague Dawley rat, male, plasma; subcutaneous, 5.0 mg/kg daily, day 28): 4550 ng·h/mL
Nc1ccn([C@@H]2O[C@H](CO)[C@@H](O)C2(F)F)c(=O)n1  measured concentration (THU-treated rat plasma; 12.00 ng/mL, 2 months, -80 °C, frozen storage, low QC): 10.6 ± 1.3 ng/mL
CC[C@H](C)[C@H](NC(=O)[C@H](CO)NC(=O)[C@H](Cc1ccc(O)cc1)NC(=O)[C@H](CC(=O)O)NC(=O)[C@H](CO)NC(=O)[C@@H](NC(=O)[C@H](Cc1ccccc1)NC(=O)[C@@H](NC(=O)CNC(=O)[C@H](CCC(=O)O)NC(=O)[C@H](C)NC(=O)[C@@H](N)Cc1ccc(O)cc1)[C@@H](C)O)[C@@H](C)CC)C(=O)N[C@@H](C)C(=O)N[C@@H](CCSC)C(=O)N[C@@H](CC(=O)O)C(=O)N[C@@H](CCCCN)C(=O)N[C@H](C(=O)N[C@@H](Cc1c[nH]cn1)C(=O)N[C@@H](CCC(N)=O)C(=O)N[C@@H](CCC(N)=O)C(=O)N[C@@H](CC(=O)O)C(=O)N[C@@H](Cc1ccccc1)C(=O)N[C@H](C(=O)N[C@@H](CC(N)=O)C(=O)N[C@@H](Cc1c[nH]c2ccccc12)C(=O)N[C@@H](CC(C)C)C(=O)N[C@@H](CC(C)C)C(=O)N[C@@H](C)C(=O)N[C@@H](CCC(N)=O)C(=O)N[C@@H](CCCCN)C(=O)NCC(=O)N[C@@H](CCCCN)C(=O)N[C@@H](CCCCN)C(=O)N[C@@H](CC(N)=O)C(=O)N[C@@H](CC(=O)O)C(=O)N[C@@H](Cc1c[nH]c2ccccc12)C(=O)N[C@@H](CCCCN)C(=O)N[C@@H](Cc1c[nH]cn1)C(=O)N[C@@H](CC(N)=O)C(=O)N[C@H](C(=O)N[C@H](C(=O)N[C@@H](CCC(N)=O)C(=O)O)[C@@H](C)O)[C@@H](C)CC)C(C)C)[C@@H](C)CC  metabolic clearance rate (human type 2 diabetes; intravenous infusion, 4 pmol/kg/min, 60 to 360 min): 8 ± 0.6 mL/min/kg
COc1ccc2[nH]cc(CCNC(C)=O)c2c1  concentration (wild-type FVB/N lactating female mice, plasma; intravenous, 10 mg/kg, 30 min): 513 ± 413 µg/mL
CC[C@H](C)[C@@H]1NC(=O)[C@H](Cc2ccc(O)cc2)NC(=O)[C@@H](N)CSSC[C@@H](C(=O)N2CCC[C@H]2C(=O)N[C@@H](CC(C)C)C(=O)NCC(N)=O)NC(=O)[C@H](CC(N)=O)NC(=O)[C@H](CCC(N)=O)NC1=O  AUC above baseline (ELISA; C57BL/6J male mice, wild type, plasma; intraperitoneal, 12 µg total, incremental area over baseline): 9900 ± 2150 pg·30 min/sample
Oc1ccc2c3c(cnc2c1)-c1ccc(C(F)(F)F)cc1O[C@@H]3c1ccc(OCCN2CC(CF)C2)cc1  faecal radioactivity excretion (human, healthy female, fasted, faeces; oral, 400 mg): 61.8%
CCN(CC)CCNC(=O)c1c(C)[nH]c(/C=C2\C(=O)Nc3ccc(F)cc32)c1C  BNP level (human, plasma; 37.5 mg daily, 11 months): 2300 pg/mL
NC(=O)OCC(COC(N)=O)c1ccccc1  hepatocyte vacuolization score (Sprague-Dawley rat, male, liver; oral, 1920 mg/kg, 24 h, single high dose; direction not given): 0
CO[C@H]1C[C@@H]2CC[C@@H](C)[C@@](O)(O2)C(=O)C(=O)N2CCCC[C@H]2C(=O)O[C@H]([C@H](C)C[C@@H]2CC[C@@H](O)[C@H](OC)C2)CC(=O)[C@H](C)/C=C(\C)[C@@H](O)[C@@H](OC)C(=O)[C@H](C)C[C@H](C)/C=C/C=C/C=C/1C  terminal half-life (NOD/SCID mice, male, blood or plasma; intraperitoneal, 0.5 mg/kg every 48 h): 13.6 h
COc1cccc2c1C(=O)c1c(O)c3c(c(O)c1C2=O)C[C@@](O)(C(=O)CO)C[C@@H]3O[C@H]1C[C@H](N)[C@H](O)[C@H](C)O1  terminal half-life (mouse, E0771 tumour-bearing, tumor; intravenous, 92 µmol/kg): 53 h
CC(=O)c1ccc([C@H]2C[C@@]3(C)[C@@H](CC[C@@]3(O)C(F)(F)C(F)(F)F)[C@@H]3CCC4=CC(=O)CCC4=C32)cc1  maximal oral bioavailability (rat liver microsomes; 100 % absorption assumed): 83%
O=C1COCCO1  lactone fraction (acidic solution): 1.4%
C[C@]12CC[C@@H]3c4ccc(O)cc4CC[C@H]3[C@@H]1C[C@@H](O)[C@@H]2O  median serum concentration (GC-MS; breast cancer women on NSAI, serum; vaginal, 0.03 mg daily, 4 h, day 28): 0 ng/mL
COc1cc2c(cc1OC)[C@@H]1Cc3ccc(OC)c(OC)c3CN1CC2  measured concentration (rat plasma QC sample; 3200 ng/mL nominal, 24 h, high QC level autosampler stability): 3172 ± 25.4 ng/mL
C[C@H]1Oc2cc(cnc2N)-c2c(nn(C)c2C#N)CN(C)C(=O)c2ccc(F)cc21  maximum induced clearance (human (NSCLC and healthy); oral, 100 mg, PopPK, steady state): 241 mL/min
NCCCC[C@@H]1NC(=O)[C@@H](Cc2c[nH]c3ccccc23)NC(=O)[C@H](c2ccccc2)NC(=O)[C@@H]2C[C@@H](OC(=O)NCCN)CN2C(=O)[C@H](Cc2ccccc2)NC(=O)[C@H](Cc2ccc(OCc3ccccc3)cc2)NC1=O  beta half-life (radioimmunoassay; healthy human male volunteers, plasma; subcutaneous, 300 µg): 10.7 ± 1 h
CC1=C2C[C@H]3[C@@H](CC[C@@H]4C[C@H](NS(C)(=O)=O)CC[C@@]43C)[C@@H]2CC[C@@]2(C1)O[C@@H]1C[C@H](C)CN[C@H]1[C@H]2C  AUC(0-24) (patients, plasma; oral, 20 mg daily, day 22, cycle 1): 180 ng·h/mL
NC1(c2ccc(-c3nc4ccn5c(=O)[nH]nc5c4cc3-c3ccccc3)cc2)CCC1  dalotuzumab trough serum concentration (ELISA; human, serum; dose not given): no effect
O=C(/C=C/c1cccc(S(=O)(=O)Nc2ccccc2)c1)NO  volume of distribution (Vss) (human, normal liver function; intravenous, 400 mg/m^2, 30 min infusion, single dose, mean): 30.1 L/m²
O=C1CN(/N=C/c2ccc(-c3ccc([N+](=O)[O-])cc3)o2)C(O)=N1  hepatocyte vacuolization score (Sprague-Dawley rat, male, liver; oral, 100 mg/kg, 24 h, single low dose; direction not given): 0
Cc1nc2cccc(OCC(C)(C)C(=O)NC(C)C)c2c(N)c1C(=O)O  AUC(0-t) (female Sprague-Dawley rat, plasma; oral, 30 mg/kg): 107 ng·h/mL
Cc1[nH]c(=O)c(CNC(=O)c2ccc(F)nc2)c2c1CCCC2  kinetic solubility (U-HPLC; 20% DMSO in water): 114 µg/mL (≈ 360 µM)
Oc1ncnc2[nH]ncc12  Ae(0-24) ratio (human, male, urine; oral, 10 mg, together with: allopurinol 300 mg; baseline: combination over alone): 89.5%
CN1CCN(c2ccc(Nc3ncc4cc(C#N)c(=O)n(C5CCCC5)c4n3)cc2)CC1  Tmax (NIH Swiss nude mice, intracerebral U87 tumour, brain tumour; intravenous, 25 mg/kg, together with: gefitinib 200 mg/kg oral 1 h before): 0.5 h
CC(C)=CCC[C@](C)(O[C@@H]1O[C@H](CO)[C@@H](O)[C@H](O)[C@H]1O)[C@H]1CC[C@]2(C)[C@@H]1[C@H](O)C[C@@H]1[C@@]3(C)CC[C@H](O)C(C)(C)[C@@H]3[C@@H](O[C@@H]3O[C@H](CO)[C@@H](O)[C@H](O)[C@H]3O[C@@H]3O[C@@H](C)[C@H](O)[C@@H](O)[C@H]3O)C[C@]12C  post-preparative stability accuracy (rat, extracted tissue homogenate QC samples; 0.2 µg/mL, 24 h, 15 °C, autosampler): 92.9 ± 3.5%
FC(F)(F)c1cccc(Nc2ncnc3ccccc23)c1  logP (potentiometric, optimised protocol; octanol/water, 0.15 M KCl; neutral species): 4.1
C[C@H](N)C(=O)N[C@H](Cc1c[nH]c2ccccc12)C(=O)N[C@@H](Cc1ccccc1)C(=O)N[C@H](C(=O)N1CCC(C(N)=O)CC1)[C@H](c1ccccc1)c1c[nH]c2ccccc12  HPLC retention (RP-HPLC Kinetex Biphenyl; acetonitrile/water TFA gradient): 45 %B
CCN(CC)CCNC(=O)c1c(C)[nH]c(/C=C2\C(=O)Nc3ccc(F)cc32)c1C  maximum trough plasma concentration (human, plasma; oral, 15 mg/m2, day 14): 61.9 ng/mL
COC(=O)N[C@H](C(=O)N[C@@H](Cc1ccccc1)[C@@H](O)CN(Cc1ccc(-c2ccccn2)cc1)NC(=O)[C@@H](NC(=O)OC)C(C)(C)C)C(C)(C)C  Vd/F (population PK model; pregnant women, third trimester; oral, median, together with: with tenofovir): 127 L
CCn1c2ccccc2c2cc(-n3nncc3-c3ccccc3)ccc21  concentration (SCID mice, female, MDA-MB-468 mammary fat pad tumour; intraperitoneal, 10 mg/kg single dose, 30 min): 235 ng/g
C[N+]1(CC(=O)OC2CCCC2)CCCCC1.[I-]  half-life (metabolic stability; human, liver microsomes; 1 µM, pH 7.4): > 1 h
COc1ccc(-c2cc(=O)c3c(OC)c(OC)c(OC)c(OC)c3o2)cc1  tissue to peel content ratio (C57BL/6 mouse, male, small intestine; oral, 1% w/w in diet, 6 weeks, orange peel extract diet; baseline: content in orange peel): 2.98%
CN(C)C(=O)c1cc2cnc(Nc3ccc(N4CCNCC4)cn3)nc2n1C1CCCC1  AUC(0-24h) (CD1 nude mouse, non-tumour-bearing, plasma (total); oral, 100 mg/kg, microdialysis study): 33200 ± 9380 ng·h/mL

Excerpt of the above:
CC(C)=CCC[C@](C)(O[C@@H]1O[C@H](CO)[C@@H](O)[C@H](O)[C@H]1O)[C@H]1CC[C@]2(C)[C@@H]1[C@H](O)C[C@@H]1[C@@]3(C)CC[C@H](O)C(C)(C)[C@@H]3[C@@H](O[C@@H]3O[C@H](CO)[C@@H](O)[C@H](O)[C@H]3O[C@@H]3O[C@@H](C)[C@H](O)[C@@H](O)[C@H]3O)C[C@]12C  post-preparative stability accuracy (rat, extracted tissue homogenate QC samples; 0.2 µg/mL, 24 h, 15 °C, autosampler): 92.9 ± 3.5%
FC(F)(F)c1cccc(Nc2ncnc3ccccc23)c1  logP (potentiometric, optimised protocol; octanol/water, 0.15 M KCl; neutral species): 4.1
C[C@H](N)C(=O)N[C@H](Cc1c[nH]c2ccccc12)C(=O)N[C@@H](Cc1ccccc1)C(=O)N[C@H](C(=O)N1CCC(C(N)=O)CC1)[C@H](c1ccccc1)c1c[nH]c2ccccc12  HPLC retention (RP-HPLC Kinetex Biphenyl; acetonitrile/water TFA gradient): 45 %B
CCN(CC)CCNC(=O)c1c(C)[nH]c(/C=C2\C(=O)Nc3ccc(F)cc32)c1C  maximum trough plasma concentration (human, plasma; oral, 15 mg/m2, day 14): 61.9 ng/mL
